Experimental data collected from several papers.
Every numbered part comes from another study and shows a few of its results, in no order. Changes are numbered by the printed parent chain.

Series 1
Target: FOS, bZIP domain (human)
Technique: DHFR protein complementation
Matrix: yeast
Notes: single substitutions, most at no-binding floor
Relative to: wild-type JUN-FOS pair
Reading: higher = stronger binding
Parent: JUN, bZIP domain (human); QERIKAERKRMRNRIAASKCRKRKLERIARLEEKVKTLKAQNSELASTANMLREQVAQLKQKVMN; partner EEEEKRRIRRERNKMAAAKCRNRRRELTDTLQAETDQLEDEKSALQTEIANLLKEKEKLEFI
Change | binding fitness [natural log]
A46Y | -0.232
L31G | -0.83
E54I | -0.116
T48Q | 0.0636
K36C | -0.00689
E54Q | -0.256
T48R | 0.0614
V56N | -0.916
K36M | 0.0707
M51R | 0.00675
L52T | -0.986
K36P | -1.22
Q55V | -0.0496
V56G | -1.34
L52C | -1.49
K39V | -0.535
L38K | -1.23
A46R | 0.116
R30Y | 0.0214
E54L | -0.237
R30S | 0.116
L38S | -1.16
K39I | -0.583
A57Y | -0.168
R53N | -0.873

Series 2
Target: CCNA1, cyclin fold, Cln2 fusion (human)
Technique: yeast growth competition, sequencing
Matrix: yeast
Notes: weak parent motif
Relative to: not given
Reading: higher = stronger binding
Parent: PKN2 docking peptide (human); VSAVQKLDFSDTM
Change | normalised enrichment score
D8A | 0.3
V1K | 0.281
A3E | -0.0565
D8E | 0.176
T12V | 0.156
D11T | 0.157
V4H | 0.0894
S10P | 0.332
D8S | 0.268
S10C | 0.351
V1S | 0.0818
M13T | 0.165
A3Q | 0.0602
S2N | 0.122
K6W | 0.326
V1Q | 0.189
S2W | 0.2
V4A | 0.261
M13I | 0.407

Series 3
Target: RNA binding protein fox-1 homolog 2, RRM domain, GST-SBP tag (RBFOX2, Homo sapiens, UniProt O43251-10, residues 100-194)
Technique: RNA Bind-n-Seq
Form: RNA
Matrix: in vitro
Concentration: 365 nM
Notes: natural RNA segment, single round, ends assumed
Relative to: no-protein control
Reading: higher = stronger binding
All sequences stand within: GGGAGUUCUACAGUCCGACGAUC … UGGAAUUCUCGGGUGCCAA
Sequence | RBNS enrichment (R)
CUCUGAACUAAAGUAGUAACCUCCCAAAUUGUUUUUUCUAAUAAGCUGAGAUUCCCAUUUCUCUUAAGGAGAAGCCACCCAUGAGAUGUCUUUUCCUUCUCCAUCAUCUU | 0.6
UUUCUGUGACAAGUAUUUGUCGUAAAUUAAUUUUAAUUGUGUAUCAAGUGAAAAAGAAACACUGAGGUUUUAAGCUGCUGUAUAUAGCUUGUGAGAAACCUCUUUUCUUU | 0.401
GAAAAUGACUUAGGAAAAAACGUUUCUGAGCAAGCAUUCUGGCCCAUGCACUGGCUGAAGUGGGCAGACUGGAGGCGGCCUCUGCAAGAAAUGGAGUCAGGCGAAGUCCA | 1.33
GAAAGCUAGUUUUGAGAAAUUAUUCAGAAGCCUUGUUAUUUUAAAAAUGAAAUAUUUCAAAGACUGAAUAUUUUCAAAGAAAAUGAAUAAUUCAUUGCCCUUGUGAUUUA | 0.619
GUCACUUUGAAAUGUAACGAAUGGUACUACAACCAAUUCCAAGUUUUAAUUUUUAACACCAUGGCACCUUUUGCACAUAACAUGCUUUAGAUUAUAUAUUCCGCACUCAA | 0.902
UUCACACUGUAGUUAUUGCUUCAUUUACAGGUCCUCUGUGCUUAAUUGCUGUUUUUGUUGCUGUAGUACCUUAUGAAUUCUUAAUUCAUUGAGACUUAGUGACCAUCUGG | 0.471
CCUAGAGCUAGCAGUCCUCAUCCAGGCAACCGAGGGCAGUGGUUUUGUUUGUGUUCUUGGCUGUUCCUAAAGCUUGCCCUUUGAGUAUUAUCAGGAGAACCCAAGCUGUC | 1.75
CCUUUGCACUGAGGACACAGAUCCCGGGGAGCUGUGAGGGCCACCGGUGGGCAGUGGGUGGAUCCUGGUUUCGUGUGCUGCCCAUGCACCUUCCAGCCCGGGGCCAGCUU | 0.468
UUAGCAAAGACAACUGCUCCUGCUCCACUAGAUAUGACUUCCUCUCCUGUGACAACAGCCAGUUUAGAAAAACUCCCUGUACCCCAGAUCAGUGGAACUGCAACAUCUAC | 0.503
UUCAAAGUAGUUUUUUUUUUUUCAUUCUUUCCCAUAAGAAAAGACAAAAUAGACAAGGUCACUUAUCCUGCCAUAUUGUCUCUUUGUAUAUAAAGAUGUUCAUAUUUUAG | 0.629
UGACAUGGGGAGCAAUGCUAAGCAAGCUAAGUGUAAAAGAAAAGUGACAGAAUAAUUUUGGAAGAGGAAGCCUCAUCAAAAGCUCACACAAAAUAGAGCUUCCCAUGGUG | 0.502
CUCCCUCCAUAGCCAAUCUGCAUCUCGCUCUGGAUGCCCACUCCUGACCUGCCACGCCCUACAUGGUCCCCUGUGUAGCUUGCUAGCCUUGGGGGCCUGUCACUUGCCAA | 3.57

Series 4
Target: Fragile X messenger ribonucleoprotein 1, C-terminal low-complexity region (Fmr1, Mus musculus, UniProt P35922)
Technique: RNA Bind-n-Seq
Form: RNA
Matrix: in vitro
Concentration: 200 nM
Notes: whole 134-nt RNA, ends assumed
Together with: 150 mM KCl
Relative to: input library
Reading: higher = stronger binding
All sequences stand within: GGGAGUUCUACAGUCCGACGAUC … UGGAAUUCUCGGGUGUCAAGG
Sequence | log2 enrichment
UCCUGUGCUACACAUCGUAUGUACCGAAUCGGGGAGGGGUUUUUUUGGGGAAAAAGGGGAAAGUAUUAUGUUACGCCGUUCGGAUCUGCA | 0.69
UCAAGUCCUGUGCUACACAUCGUAUGUACCGAAUCGGGGCGGGGCGGGGCGGGGAAAGUAUUAUGUUACGCCGUUCGGAUCUGCACUUCC | 1.42
AGUCCUGUGCUACACAUCGUAUGUACCGAAUCGGGGUUUUGGUUUUGGGGUUUUGGGGAAAGUAUUAUGUUACGCCGUUCGGAUCUGCAC | 0.45
UUUCUGCAGCAUUAGAGAAGGCCCAAGAAGAAGCCCGUCAGCAGCAAGAAACAUUAGCCAUUCAAGUAAGCAAUGGAUGAUGAAUUAGAG | -1.27
GCAGGAAGUAAAAACAAAUGGAAAUGCGUCGGAUAGUGGCAGGGGUGGGGGUUGCUAAGGAAAGGGUGGGAUGGGAGUGGGUAAAGAGUU | -0.307
CCUGUGCUACACAUCGUAUGUACCGAAUCAAAGUGUGUGUGUGUAAAGUGUGUGUGUAAAAAAGUAUUAUGUUACGCCGUUCGGAUCUGC | -0.271
CAAGUCCUGUGCUACACAUCGUAUGUACCGAAUCGGGGAGGGGAGGGGAAAGGGGAAAGUAUUAUGUUACGCCGUUCGGAUCUGCACUUC | 1.1
GCAGGAAGUAAAAACAAAUGGAAAUGCUUCGGAUAGUGGCAGGGGUGAAAGUUGCUAAGGAAAGGGUGGGAUGGGAGUGGGUAAAGAGUU | 0.35
AAGUCCUGUGCUACACAUCGUAUGUACCGAAUCGGGAAAAGGGGAAAAGGGAAAAGGAAAGUAUUAUGUUACGCCGUUCGGAUCUGCACU | -0.244
UGGCCCUGGUGGCAUGCGGGAAGGAAGAGGUGGCCUCAUGGAUCGUGGUGGUCCCGGUGGAAUGUUCAGAGGUGGCCGUGGUGGAGACAG | 0.443
AGUCCUGUGCUACACAUCGUAUGUACCGAAUCGGAAAAAGGAAAAAGGGGAAAAAGGGAAAGUAUUAUGUUACGCCGUUCGGAUCUGCAC | -0.549
CAAGUCCUGUGCUACACAUCGUAUGUACCGAAUCGGCCCGGGGCCCGGGGCCCGGAAAGUAUUAUGUUACGCCGUUCGGAUCUGCACUUC | -0.528
CCUCAAGUCCUGUGCUACACAUCGUAUGUACCGAAUCGGGAGGGGAGGAGGGAAAGUAUUAUGUUACGCCGUUCGGAUCUGCACUUCCAG | 0.946
UGGGAGGGGGAUUUUGUUUAUUUUUUUAGCUCAUUUCCAGGGGUGGGAAUUUUUUUUUAAUAUGUGUCAUGAAUAAAGUUGUUUUUGAAA | 0.329

Series 5
Target: Myc proto-oncogene protein, bHLH-zipper, MAX partner unstated (MYC, Homo sapiens, UniProt P01106, residues 368-449)
Chain of UniProt P01106 (368-449, looked up): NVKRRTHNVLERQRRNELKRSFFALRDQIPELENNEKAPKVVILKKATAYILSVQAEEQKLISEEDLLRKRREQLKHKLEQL
Technique: protein-binding microarray
Form: double-stranded DNA, one strand shown
Matrix: in vitro
Concentration: not given
Notes: k-mer, scored over probes, only values ≥0.25
Reading: higher = stronger binding
Sequence | E-score
AGCATGTA | 0.342
CATGGATC | 0.273
AGGGCATG | 0.318
ACGCCACC | 0.295
CCTCCCAC | 0.253
GTGCGGCA | 0.32
GGCGTGTA | 0.32
CACGCTGA | 0.357
ACCGCGTG | 0.488
CGGTCACA | 0.251
CGGGCACG | 0.357
GCCATGTA | 0.267
ACATGCGA | 0.376
ACACATGA | 0.367
CACGGTGG | 0.281
ACAACCCC | 0.264
AGTCATGC | 0.319
CATGGCAC | 0.388
CACATGAC | 0.435
GACCCGCC | 0.313
CACATGAA | 0.295
ATCACGTG | 0.477
AAAGCATG | 0.433
CGTGGTCA | 0.419
ACGAGGAG | 0.328

A few entries again (series 4):
Sequence | log2 enrichment
UCCUGUGCUACACAUCGUAUGUACCGAAUCGGGGAGGGGUUUUUUUGGGGAAAAAGGGGAAAGUAUUAUGUUACGCCGUUCGGAUCUGCA | 0.69
UCAAGUCCUGUGCUACACAUCGUAUGUACCGAAUCGGGGCGGGGCGGGGCGGGGAAAGUAUUAUGUUACGCCGUUCGGAUCUGCACUUCC | 1.42
AGUCCUGUGCUACACAUCGUAUGUACCGAAUCGGGGUUUUGGUUUUGGGGUUUUGGGGAAAGUAUUAUGUUACGCCGUUCGGAUCUGCAC | 0.45
UUUCUGCAGCAUUAGAGAAGGCCCAAGAAGAAGCCCGUCAGCAGCAAGAAACAUUAGCCAUUCAAGUAAGCAAUGGAUGAUGAAUUAGAG | -1.27
GCAGGAAGUAAAAACAAAUGGAAAUGCGUCGGAUAGUGGCAGGGGUGGGGGUUGCUAAGGAAAGGGUGGGAUGGGAGUGGGUAAAGAGUU | -0.307
CCUGUGCUACACAUCGUAUGUACCGAAUCAAAGUGUGUGUGUGUAAAGUGUGUGUGUAAAAAAGUAUUAUGUUACGCCGUUCGGAUCUGC | -0.271
CAAGUCCUGUGCUACACAUCGUAUGUACCGAAUCGGGGAGGGGAGGGGAAAGGGGAAAGUAUUAUGUUACGCCGUUCGGAUCUGCACUUC | 1.1
GCAGGAAGUAAAAACAAAUGGAAAUGCUUCGGAUAGUGGCAGGGGUGAAAGUUGCUAAGGAAAGGGUGGGAUGGGAGUGGGUAAAGAGUU | 0.35
AAGUCCUGUGCUACACAUCGUAUGUACCGAAUCGGGAAAAGGGGAAAAGGGAAAAGGAAAGUAUUAUGUUACGCCGUUCGGAUCUGCACU | -0.244
UGGCCCUGGUGGCAUGCGGGAAGGAAGAGGUGGCCUCAUGGAUCGUGGUGGUCCCGGUGGAAUGUUCAGAGGUGGCCGUGGUGGAGACAG | 0.443
AGUCCUGUGCUACACAUCGUAUGUACCGAAUCGGAAAAAGGAAAAAGGGGAAAAAGGGAAAGUAUUAUGUUACGCCGUUCGGAUCUGCAC | -0.549
CAAGUCCUGUGCUACACAUCGUAUGUACCGAAUCGGCCCGGGGCCCGGGGCCCGGAAAGUAUUAUGUUACGCCGUUCGGAUCUGCACUUC | -0.528
CCUCAAGUCCUGUGCUACACAUCGUAUGUACCGAAUCGGGAGGGGAGGAGGGAAAGUAUUAUGUUACGCCGUUCGGAUCUGCACUUCCAG | 0.946
UGGGAGGGGGAUUUUGUUUAUUUUUUUAGCUCAUUUCCAGGGGUGGGAAUUUUUUUUUAAUAUGUGUCAUGAAUAAAGUUGUUUUUGAAA | 0.329
